Published values gathered from unrelated publications.
Values joined by “and” are separate records of one study, mostly repeats; a detail may differ. ± marks the error that the study gave.

`Nc1ncnc2c1ncn2[C@@H]1O[C@H](CSCC[C@H](N)C(=O)O)[C@@H](O)[C@H]1O` gave a binding stoichiometry of 0.94 ± 0.017 (O-methyltransferase (Sorghum bicolor, UniProt A0A1B6PFV1); ITC; concentration not given, with: RSV+).
With `COC(=O)c1ccccc1O` the relative fluorescence was 71.6% (uncharacterized protein (Spodoptera exigua, UniProt F1CEY0); binding, competitor, fluorescence displacement; 20 µM, pH 7.4, with: 1-NPN 20 µM; baseline: 1-NPN alone).
With `CC(=O)N[C@H](C(=O)N1C[C@H](O)C[C@H]1C(=O)NCc1ccc(-c2scnc2C)cc1)C(C)(C)SCCCCCCNC(=O)C[C@@H]1N=C(c2ccc(Cl)cc2)c2c(sc(C)c2C)-n2c(C)nnc21` the binding stoichiometry was 0.81 ± 0.04 (von Hippel-Lindau disease tumor suppressor, with elongin B/C (VHL, Homo sapiens, UniProt P40337); PROTAC, ITC; concentration not given, 25 °C).
With `C=CC(=O)N1CCC(COCC(=O)N2CCN(c3nc(-c4cnc(N)nc4C(F)F)nc(N4CCOC[C@@H]4C)n3)CC2)CC1` the remaining binding was 68% (ULK1 (Homo sapiens, UniProt O75385); KINOMEscan; 1 µM; baseline: DMSO control).
`OC[C@H]1O[C@@H](Oc2cc3c(O)cc(O)cc3[o+]c2-c2ccc(O)cc2)[C@H](O)[C@@H](O)[C@@H]1O` gave a bathochromic shift of 17 nm (Albumin (ALB, Homo sapiens, UniProt P02768); binding, visible absorption; 50 µM, pH 7, with: HSA up to 200 µM; baseline: without HSA).
The current response of `C[C@H](CCC(C)(C)O)[C@H]1CC[C@H]2[C@@H]3CC=C4C[C@@](C)(O)CC[C@]4(C)[C@H]3CC[C@]12C` is reported as 158 ± 6.5% (Glutamate NMDA receptor; GRIN1/GRIN2B (GRIN1/GRIN2B, Homo sapiens, UniProt Q05586+Q13224, F654A); positive allosteric modulator, two-electrode voltage clamp; Xenopus oocytes expressing GluN1-F654A; 10 µM, 0.02% cremophor, with: 100 µM glutamate and glycine; baseline: without compound).
Under “lowest bound protein concentration”, `CC[C@H](C)[C@@H]1NC(=O)[C@H](Cc2ccc(O)cc2)NC(=O)[C@H](CC(C)C)NC(=O)[C@@H]2CCCN2C(=O)[C@@H](NC(=O)[C@H](CCCNC(=N)N)NC(=O)[C@H](CCCNC(=N)N)NC(C)=O)CSSC[C@@H](C(=O)N[C@@H](CCCNC(=N)N)C(=O)N[C@@H](CCCNC(=N)N)C(N)=O)NC(=O)[C@H](C(C)C)NC(=O)[C@@H]2CCCN2C(=O)[C@H](CC(=O)O)NC(=O)[C@H](Cc2ccc(O)cc2)NC(=O)[C@H](CO)NC1=O` is recorded as 0.08 µM (GTPase KRas, GDP-bound (KRAS, Homo sapiens, UniProt P01116, G12D); affinity selection mass spectrometry; mixture library 2, with: protein titration up to 5 µM; lower is stronger binding).
Under “log2 fold change”, `c1coc(-c2n[nH]cc2-c2ccnc3ccccc23)c1` is recorded as -0.11 (Carbon catabolite-derepressing protein kinase (SNF1, Candida albicans, UniProt P52497); kinase binding, MIB/MS competition; Candida albicans lysate; 10 µM; baseline: DMSO, negative = stronger binding).
With `CN(C)C(=O)CN1CCN(c2cnc3c(cc(C(=O)NCc4ccc(Cl)cc4)c(=O)n3CC(=O)N3CC(C)(F)C3)n2)C1=O` the Hill slope was 0.64 (DNA polymerase catalytic subunit (Human cytomegalovirus, UniProt P08546); enzyme activity, inhibitor).
`COc1cc(NC(=O)c2ccccn2)ccc1/N=N/c1ccccc1Cl` gave an activation of 119% (GRM4 (Homo sapiens, UniProt Q14833); positive allosteric modulator, IP accumulation; HEK293; 30 µM, in the dark, with: low-dose orthosteric agonist).
`CC[C@H](C)[C@H](NC(=O)[C@H](CCCNC(=N)N)NC(=O)[C@H](Cc1ccc(O)cc1)NC(=O)[C@@H]1CSCc2cc3cc(c2)CSC[C@H](NC(=O)[C@@H]2CCCN2C(=O)[C@H](CO)NC(=O)[C@@H]2CCCN2C(=O)[C@@H](NC(=O)[C@H](CCSC)NC(C)=O)[C@@H](C)O)C(=O)N[C@@H]([C@@H](C)O)C(=O)N[C@@H](CC(C)C)C(=O)N[C@@H](Cc2ccccc2)C(=O)N[C@@H](CSC3)C(=O)N1)C(=O)N[C@@H](Cc1ccc(O)cc1)C(=O)NCC(=O)N[C@@H](CO)C(=O)NCC(=O)N[C@@H](CO)C(=O)NCC(=O)N[C@@H](CO)C(=O)N[C@@H](CC(=O)O)C(=O)N[C@@H](Cc1ccc(O)cc1)C(=O)N[C@@H](CCCCN)C(=O)N[C@@H](CC(=O)O)C(=O)N[C@@H](CC(=O)O)C(=O)N[C@@H](CC(=O)O)C(=O)N[C@@H](CC(=O)O)C(=O)N[C@@H](CCCCN)C(=O)N[C@@H](CCCCN=[N+]=[N-])C(N)=O` has a BLI response of 0.04 RU (Fibroblast growth factor receptor 3, extracellular domain (FGFR3, Homo sapiens, UniProt P22607); binding, biolayer interferometry; concentration not given).
`O=C(Nc1cccc2c(=O)cc(-c3nnn[nH]3)oc12)c1ccc(OCCCCc2ccccc2)cc1` gave an inhibition of 2.89% and -10.2% and -3.28% and 10.7% (Volume-regulated anion channel subunit LRRC8C, part LRRC8A IL1 chimera (LRRC8C, Homo sapiens, UniProt Q8TDW0); ion current, inhibitor, whole-cell patch clamp; HCT LRRC8-/- cells, transfected; 0.1 µM, low ionic strength swelling, +100 mV).
The reaction velocity of `Nc1nc2c(ncn2[C@@H]2O[C@H](COP(=O)(O)O)[C@@H](O)[C@H]2O)c(=O)[nH]1` is reported as 0.0741 µM/s and 0.0443 µM/s and 0.0684 µM/s (GUK1 (Homo sapiens, UniProt Q16774); enzyme activity, NADH-coupled; 62.5 µM, with: NaCl 10 mM).
For `Cc1cc(-c2ccnc3[nH]cc(F)c23)cc(F)c1[C@@]1(O)[C@H](C)CN(C2CCS(=O)(=O)CC2)C[C@@H]1C`, “probe labelling inhibition” read 24% (JAK1 (Homo sapiens, UniProt P23458); ATP/ADP probe binding, KiNativ; HEK293T lysate; 1 µM, Lys1 peptide domain 2).
The potency ratio of `N[C@H](CNC(=O)c1ccc(-c2ccccc2Br)s1)C(=O)O` is reported as 7.3 fold (Glutamate receptor ionotropic, NMDA 1, with GluN2C (Grin1, Rattus norvegicus, UniProt P35439, S688A); baseline: mutant over wild type).

Repeated from above:
`Nc1ncnc2c1ncn2[C@@H]1O[C@H](CSCC[C@H](N)C(=O)O)[C@@H](O)[C@H]1O` gave a binding stoichiometry of 0.94 ± 0.017 (O-methyltransferase (Sorghum bicolor, UniProt A0A1B6PFV1); ITC; concentration not given, with: RSV+).
